Results gathered from unrelated publications.
Parts stem from different laboratories: compare values within a part only. Several values in a cell are separate wells, animals, samples, runs or records.
Sequence of UniProt Q9UKS7 (whole entry, looked up): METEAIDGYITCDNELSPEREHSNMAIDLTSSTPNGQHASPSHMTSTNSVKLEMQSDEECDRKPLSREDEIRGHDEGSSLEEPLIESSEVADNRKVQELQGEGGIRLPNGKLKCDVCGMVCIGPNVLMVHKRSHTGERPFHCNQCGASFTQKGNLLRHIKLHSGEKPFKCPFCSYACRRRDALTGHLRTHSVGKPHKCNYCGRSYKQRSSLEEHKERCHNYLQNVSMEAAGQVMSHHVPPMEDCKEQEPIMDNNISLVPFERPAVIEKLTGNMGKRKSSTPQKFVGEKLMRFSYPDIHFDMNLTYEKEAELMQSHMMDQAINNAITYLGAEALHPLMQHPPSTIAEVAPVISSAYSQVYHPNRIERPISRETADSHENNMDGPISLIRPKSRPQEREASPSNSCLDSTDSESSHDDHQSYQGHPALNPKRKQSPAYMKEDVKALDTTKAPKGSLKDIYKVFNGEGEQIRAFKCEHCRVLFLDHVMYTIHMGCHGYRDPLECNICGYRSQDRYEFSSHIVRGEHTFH
Sequence of UniProt P33261 (whole entry, looked up): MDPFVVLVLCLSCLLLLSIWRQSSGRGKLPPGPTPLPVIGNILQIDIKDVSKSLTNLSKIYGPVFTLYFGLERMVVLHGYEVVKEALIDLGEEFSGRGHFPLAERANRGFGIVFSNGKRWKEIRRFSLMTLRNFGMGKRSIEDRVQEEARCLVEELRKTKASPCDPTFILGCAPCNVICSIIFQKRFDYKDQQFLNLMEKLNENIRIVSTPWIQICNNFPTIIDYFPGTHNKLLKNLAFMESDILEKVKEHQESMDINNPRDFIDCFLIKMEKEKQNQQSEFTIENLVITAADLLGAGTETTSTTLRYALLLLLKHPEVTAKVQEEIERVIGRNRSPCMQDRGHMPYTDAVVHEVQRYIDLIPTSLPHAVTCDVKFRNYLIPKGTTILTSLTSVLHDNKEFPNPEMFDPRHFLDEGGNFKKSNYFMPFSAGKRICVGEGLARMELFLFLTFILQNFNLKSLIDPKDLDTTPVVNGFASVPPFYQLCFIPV
Sequence of UniProt Q96SW2 (whole entry, looked up): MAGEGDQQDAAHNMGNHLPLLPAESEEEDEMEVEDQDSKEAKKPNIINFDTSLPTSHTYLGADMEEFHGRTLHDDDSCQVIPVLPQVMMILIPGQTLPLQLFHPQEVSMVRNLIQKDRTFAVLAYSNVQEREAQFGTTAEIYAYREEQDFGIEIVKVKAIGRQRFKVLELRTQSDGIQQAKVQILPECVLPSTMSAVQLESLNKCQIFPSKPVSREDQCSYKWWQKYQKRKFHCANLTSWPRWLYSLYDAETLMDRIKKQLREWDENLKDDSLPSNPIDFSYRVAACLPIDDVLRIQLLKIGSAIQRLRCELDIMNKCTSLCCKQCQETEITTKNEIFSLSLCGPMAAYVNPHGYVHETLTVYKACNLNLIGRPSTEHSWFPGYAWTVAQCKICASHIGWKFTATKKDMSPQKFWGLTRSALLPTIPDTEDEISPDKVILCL

Block 1 — mode: degrader
Structure (SMILES): Cn1cc(-c2cccc(CN3CCC4(CC3)COc3c4ccc4c3CN([C@H]3CCC(=O)NC3=O)C4=O)c2)cn1
IKZF4: Zinc finger protein Eos (IKZF4, Homo sapiens, UniProt Q9H2S9)
Sequence of UniProt Q9H2S9 (whole entry, looked up): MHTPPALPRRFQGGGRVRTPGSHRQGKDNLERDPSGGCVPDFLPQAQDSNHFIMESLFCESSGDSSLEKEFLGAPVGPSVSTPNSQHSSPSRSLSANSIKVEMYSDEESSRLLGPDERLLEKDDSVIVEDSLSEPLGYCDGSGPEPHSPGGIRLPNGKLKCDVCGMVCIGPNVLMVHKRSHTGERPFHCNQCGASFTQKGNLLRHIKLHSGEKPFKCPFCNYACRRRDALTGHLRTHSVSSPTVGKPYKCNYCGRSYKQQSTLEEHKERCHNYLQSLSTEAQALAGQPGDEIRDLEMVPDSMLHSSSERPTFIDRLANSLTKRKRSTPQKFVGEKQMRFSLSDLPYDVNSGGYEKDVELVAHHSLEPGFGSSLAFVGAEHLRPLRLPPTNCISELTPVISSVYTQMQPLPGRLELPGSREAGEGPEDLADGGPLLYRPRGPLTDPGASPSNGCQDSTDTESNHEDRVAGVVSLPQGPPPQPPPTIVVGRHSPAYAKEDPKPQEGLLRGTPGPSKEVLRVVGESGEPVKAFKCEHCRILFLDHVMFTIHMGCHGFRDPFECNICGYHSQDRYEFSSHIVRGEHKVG
CSNK1A1: Casein kinase I isoform alpha (CSNK1A1, Homo sapiens, UniProt P48729)
Sequence of UniProt P48729 (whole entry, looked up): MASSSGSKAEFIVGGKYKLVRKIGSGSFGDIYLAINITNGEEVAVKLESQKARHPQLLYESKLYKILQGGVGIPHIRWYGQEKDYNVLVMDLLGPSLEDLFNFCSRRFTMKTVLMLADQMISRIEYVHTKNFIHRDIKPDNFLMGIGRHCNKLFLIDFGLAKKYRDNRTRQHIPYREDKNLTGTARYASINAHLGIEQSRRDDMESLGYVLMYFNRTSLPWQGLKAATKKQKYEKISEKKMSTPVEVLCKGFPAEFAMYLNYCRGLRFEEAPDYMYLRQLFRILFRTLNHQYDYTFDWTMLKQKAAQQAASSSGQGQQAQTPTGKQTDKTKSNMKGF
DNA-binding protein Ikaros: DNA-binding protein Ikaros (Homo sapiens, UniProt Q13422)
Sequence of UniProt Q13422 (whole entry, looked up): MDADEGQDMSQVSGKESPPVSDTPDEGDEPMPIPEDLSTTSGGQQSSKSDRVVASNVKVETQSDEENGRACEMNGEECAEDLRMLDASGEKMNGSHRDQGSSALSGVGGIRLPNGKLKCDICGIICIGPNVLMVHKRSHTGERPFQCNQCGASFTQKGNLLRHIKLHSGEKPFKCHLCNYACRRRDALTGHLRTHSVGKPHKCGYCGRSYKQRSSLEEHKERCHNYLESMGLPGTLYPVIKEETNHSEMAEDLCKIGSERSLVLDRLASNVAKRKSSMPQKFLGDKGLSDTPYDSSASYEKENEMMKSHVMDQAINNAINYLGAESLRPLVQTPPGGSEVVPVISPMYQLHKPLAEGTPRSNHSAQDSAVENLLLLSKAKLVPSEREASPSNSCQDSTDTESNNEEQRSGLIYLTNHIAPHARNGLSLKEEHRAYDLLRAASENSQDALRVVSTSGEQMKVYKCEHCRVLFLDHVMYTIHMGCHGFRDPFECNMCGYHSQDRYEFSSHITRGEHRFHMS
Zinc finger protein Aiolos: Zinc finger protein Aiolos (Homo sapiens, UniProt Q9UKT9)
Sequence of UniProt Q9UKT9 (whole entry, looked up): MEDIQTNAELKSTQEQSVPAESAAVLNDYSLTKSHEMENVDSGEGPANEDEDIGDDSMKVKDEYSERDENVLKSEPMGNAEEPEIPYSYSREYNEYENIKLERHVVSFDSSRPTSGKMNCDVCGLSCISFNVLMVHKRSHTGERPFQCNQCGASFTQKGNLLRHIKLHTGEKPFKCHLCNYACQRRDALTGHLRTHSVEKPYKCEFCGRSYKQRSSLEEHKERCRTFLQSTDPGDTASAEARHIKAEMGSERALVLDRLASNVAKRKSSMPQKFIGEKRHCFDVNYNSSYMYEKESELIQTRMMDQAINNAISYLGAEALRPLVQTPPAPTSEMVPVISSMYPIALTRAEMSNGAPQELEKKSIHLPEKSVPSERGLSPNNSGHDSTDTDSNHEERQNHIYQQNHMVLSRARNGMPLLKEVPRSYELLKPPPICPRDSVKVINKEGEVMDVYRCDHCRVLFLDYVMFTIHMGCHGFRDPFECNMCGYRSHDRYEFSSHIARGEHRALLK
GSPT1: Eukaryotic peptide chain release factor GTP-binding subunit ERF3A (GSPT1, Homo sapiens, UniProt P15170)
Sequence of UniProt P15170 (whole entry, looked up): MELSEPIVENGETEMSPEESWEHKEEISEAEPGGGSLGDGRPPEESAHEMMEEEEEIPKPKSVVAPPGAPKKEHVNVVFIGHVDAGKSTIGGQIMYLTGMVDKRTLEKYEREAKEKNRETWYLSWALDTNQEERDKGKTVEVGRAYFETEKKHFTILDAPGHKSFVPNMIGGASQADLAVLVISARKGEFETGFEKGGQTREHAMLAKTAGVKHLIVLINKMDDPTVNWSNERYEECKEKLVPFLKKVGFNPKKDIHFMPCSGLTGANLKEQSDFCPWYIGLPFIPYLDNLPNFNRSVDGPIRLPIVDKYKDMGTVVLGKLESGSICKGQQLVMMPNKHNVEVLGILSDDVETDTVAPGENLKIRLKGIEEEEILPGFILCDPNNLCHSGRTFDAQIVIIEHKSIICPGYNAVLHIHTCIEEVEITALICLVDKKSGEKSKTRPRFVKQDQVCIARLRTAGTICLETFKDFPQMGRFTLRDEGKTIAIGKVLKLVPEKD
It gave 111% and 117% for remaining protein (IKZF4; HiBiT; HEK293; 12.35 nM, 3 h).
CSNK1A1; HiBiT; HEK293; 123.5 nM — remaining protein: 97.9% and 99.4%.
For DNA-binding protein Ikaros; HiBiT; HEK293; 4.572 nM: remaining protein read 98.1% and 91.7%.
The remaining protein was 98.2% and 95.1% (Zinc finger protein Aiolos; HiBiT; HEK293; 0.1694 nM).
GSPT1; HiBiT; HEK293; 0.1694 nM — remaining protein: 95.9% and 87.2%.
For Zinc finger protein Aiolos; HiBiT; HEK293; 13.72 nM: remaining protein read 89.4% and 94.9%.
DNA-binding protein Ikaros; HiBiT; HEK293; 13.72 nM — remaining protein: 94.1% and 92.6%.
The remaining protein was 101% and 98.5% (CSNK1A1; HiBiT; HEK293; 0.5081 nM).
The remaining protein was 69.3% and 85.2% (Sal-like protein 4 (SALL4, Homo sapiens, UniProt Q9UJQ4); HiBiT; HEK293; 123.5 nM).
It gave 94% and 101% for remaining protein (CSNK1A1; HiBiT; HEK293; 370.37 nM).
It gave 102% and 98% for remaining protein (CRBN/Zinc finger protein Helios (Homo sapiens, UniProt Q96SW2+Q9UKS7); flow cytometry; primary human regulatory T cells; 0.4572 nM, 6 h).
IKZF4; HiBiT; HEK293; 1.372 nM, 3 h — remaining protein: 114% and 102%.
For GSPT1; HiBiT; HEK293; 1111.11 nM: remaining protein read 97.2% and 100%.

Block 2 — Compound: Cc1nc(C)c(C=[N+]([O-])C(C)(C)C)nc1C; method: Western blot; species: MPTP mouse model; notes: unit not given; reference: β-actin
It gave 72.8 and 87.6 and 109 and 102 for “PGC-1α protein level” (substantia nigra cytosol; 90 mg/kg).
The “PGC-1α protein level” was 102 and 84.6 and 75.8 (substantia nigra nuclei; 10 mg/kg).
substantia nigra nuclei; 90 mg/kg — “PGC-1α protein level”: 84.4 and 114 and 115.
It gave 104 and 64.8 and 92.4 and 52.9 for “PGC-1α protein level” (substantia nigra cytosol; 10 mg/kg).

Block 3 — mode: inhibitor
SMILES: NC/C(=C\F)COc1cccc(Cn2c(=S)[nH]c(=O)c3[nH]cnc32)c1
CYP3A4: Cytochrome P450 3A4 (CYP3A4, Homo sapiens, UniProt P08684)
Sequence of UniProt P08684 (whole entry, looked up): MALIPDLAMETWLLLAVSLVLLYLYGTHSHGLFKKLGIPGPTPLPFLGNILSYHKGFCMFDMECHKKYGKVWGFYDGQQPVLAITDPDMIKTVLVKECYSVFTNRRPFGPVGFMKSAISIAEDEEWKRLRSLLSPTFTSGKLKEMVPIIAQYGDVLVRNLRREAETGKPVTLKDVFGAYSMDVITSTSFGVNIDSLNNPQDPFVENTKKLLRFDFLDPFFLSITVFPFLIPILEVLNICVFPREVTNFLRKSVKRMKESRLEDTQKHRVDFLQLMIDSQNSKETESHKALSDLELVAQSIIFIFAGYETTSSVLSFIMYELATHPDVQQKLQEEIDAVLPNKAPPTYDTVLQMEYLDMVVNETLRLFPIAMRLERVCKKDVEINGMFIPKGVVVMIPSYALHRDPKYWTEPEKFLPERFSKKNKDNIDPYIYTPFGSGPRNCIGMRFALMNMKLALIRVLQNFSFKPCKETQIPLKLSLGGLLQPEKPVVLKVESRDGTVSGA
CYP2D6: Cytochrome P450 2D6 (CYP2D6, Homo sapiens, UniProt P10635)
Sequence of UniProt P10635 (whole entry, looked up): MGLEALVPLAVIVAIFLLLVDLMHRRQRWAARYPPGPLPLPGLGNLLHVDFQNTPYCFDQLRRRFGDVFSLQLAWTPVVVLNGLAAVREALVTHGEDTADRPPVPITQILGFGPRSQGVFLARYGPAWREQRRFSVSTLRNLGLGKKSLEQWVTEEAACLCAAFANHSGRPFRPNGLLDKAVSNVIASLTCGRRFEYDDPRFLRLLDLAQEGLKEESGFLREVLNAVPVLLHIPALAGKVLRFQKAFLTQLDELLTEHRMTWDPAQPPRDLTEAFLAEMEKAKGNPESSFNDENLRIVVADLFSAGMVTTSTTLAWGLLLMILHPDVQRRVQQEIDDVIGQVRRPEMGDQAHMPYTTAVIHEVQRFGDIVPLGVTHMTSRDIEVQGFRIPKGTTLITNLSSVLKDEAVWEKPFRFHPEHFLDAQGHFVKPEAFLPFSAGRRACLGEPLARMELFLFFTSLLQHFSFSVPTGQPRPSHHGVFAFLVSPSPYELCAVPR
For Cytochrome P450 2C8 (CYP2C8, Homo sapiens, UniProt P10632); 3.33 µM: remaining activity read 82.1% and 92.7%.
The remaining activity was 20.9% (CYP3A4; enzyme activity; 30 µM, CYP3A4-MID substrate).
It gave 95.6% and 103% for remaining activity (CYP2D6; 0.37 µM).
For CYP3A4; enzyme activity; 0.37 µM: remaining activity read 98.6%.
The remaining activity was 96.7% and 89.5% (CYP2D6; 3.33 µM).
Cytochrome P450 2C9 (CYP2C9, Homo sapiens, UniProt P11712); 3.33 µM — remaining activity: 68.2% and 89.2%.
The remaining activity was 70.8% (CYP3A4; enzyme activity; 3.33 µM, CYP3A4-MID substrate).
The remaining activity was 41% and 56.6% (Cytochrome P450 2C19 (CYP2C19, Homo sapiens, UniProt P33261); 30 µM).

Further values, each from its own experiment
`COCCOCCOC(=O)[C@H](CCC(=O)C=[N+]=[N-])NC(=O)[C@H](Cc1c[nH]c2ccccc12)NC(C)=O` gave a DON release of 12% (CES1-/- mouse GI tissue homogenate; concentration not given, 60 min).

A few entries again (block 1):
It gave 111% and 117% for remaining protein (IKZF4; HiBiT; HEK293; 12.35 nM, 3 h).
CSNK1A1; HiBiT; HEK293; 123.5 nM — remaining protein: 97.9% and 99.4%.
For DNA-binding protein Ikaros; HiBiT; HEK293; 4.572 nM: remaining protein read 98.1% and 91.7%.
